Experimental data pooled from the literature.
Lines come from different studies, so protocols differ. Numbers after ± are the reported error.

SMILES | assay | system | conditions | scale | half-life
C=C1CN2CCC[C@@]2(COc2nc(N3CCN(C(=O)/C=C/c4cc(CNC)c(C)cn4)C[C@@H]3C)c3cc(Cl)c(-c4nc(N)cc(C)c4C(F)(F)F)c(F)c3n2)C1 |  |  | 1 µM, pH 7.4, added: 5 mM cysteine |  | > 9 h
Cc1ccc2[nH]c(=S)n(Cc3cccnc3)c(=O)c2c1 | plasma stability | human plasma |  |  | > 6.22 h
NCc1cc2c(cc1F)C(=O)N(C1CCC(=O)NC1=O)C2 (stereo not shown) |  | male Göttingen minipig, whole blood |  |  | 0.258 h
N#C/C(=C\c1ccccc1)c1cnccn1 |  |  | pH 7.4 |  | 0.12 h
Cc1ccc(OCCN)cc1C(=O)N[C@H](C)c1cccc(-c2ccoc2)c1 |  | mouse liver microsomes | 1 µM |  | > 0.833 h
CC(=O)O[C@]1(C(C)=O)CC[C@H]2[C@@H]3C=C(Cl)C4=CC(=O)[C@@H]5C[C@@H]5[C@]4(C)[C@H]3CC[C@@]21C | substrate depletion | phenobarbital/β-naphthoflavone-induced rat liver microsomes | 1 µM, pH 7.4, 37 °C, added: NADPH |  | 0.221 h
CN[C@H](CC(C)C)C(=O)N[C@H]1C(=O)N[C@@H](CC(N)=O)C(=O)N[C@H]2C(=O)N[C@H]3C(=O)N[C@H](C(=O)N[C@H](C(=O)O)c4cc(O)cc(O)c4-c4cc3ccc4O)[C@H](O)c3ccc(c(Cl)c3)Oc3cc2cc(c3O[C@@H]2O[C@H](CO)[C@@H](O)[C@H](O)[C@H]2O[C@H]2C[C@](C)(N)[C@H](O)[C@H](C)O2)Oc2ccc(cc2Cl)[C@H]1O |  | guinea pig, tissue cage fluid | intraperitoneal, 15 mg/kg, single dose |  | 13.7 h
Cc1cc(=O)n(-c2ccccc2)n1C |  | induced rat liver microsomes | 1 µM, pH 7.4 |  | > 2 h
CCCCC[C@H](O)CC[C@@H]1[C@H]2Cc3cccc(OCC(=O)O)c3C[C@H]2C[C@H]1O | LC-MS/MS | Japanese IPAH/HPAH patients, plasma | inhaled, 54 µg, geometric mean |  | 0.7 h
O=C(O)c1cc(O)c(O)c(O)c1 | LC-MS/MS | male Ross broilers, serum | intravenous, 0.49 mg/kg BW |  | 1.18 ± 1.17 h
Clc1ccc(C(c2ccccc2Cl)C(Cl)Cl)cc1 (stereo not shown) |  | human, plasma |  |  | ~936 h
NC(=O)Nc1ccc(OC(F)(F)Cl)cc1 |  | PBS with 10% acetonitrile | 250 µM, pH 7.4, added: GSH 5 mM |  | ≥ 240 h
CC1=NN(/C(=N\c2ccccc2)Nc2nnc(C)s2)C(c2ccc(C)cc2)S1 (stereo not shown) | plasma stability | mouse plasma |  |  | 0.0483 h
COc1ccc(-n2nc(C(=O)NC(=O)OCc3cc(C(=O)O)ccc3OP(=O)(O)O)c3c2C(=O)N(c2ccc(N4CCCCC4=O)cc2)CC3)cc1 |  | HBSS | 10 µM, 2 h incubation, pH 6.5 |  | > 2 h
O=C1Nc2c(C(F)(F)F)cccc2[C@@]1(c1ccc(O)cc1)N1CCC(F)(F)C1 |  | simulated gastric fluid with pepsin | 100 µM, pH 1.2, 37 °C |  | 0.167 to 1.28 h
C[C@H]1[C@H]2N(C(=O)CN(C)N2C(=O)NCc2ccccc2)[C@@H](Cc2ccc(OP(=O)(O)O)cc2)C(=O)N1Cc1cccc2cccnc12 |  | patients, plasma | intravenous infusion, 140 mg/m2 over 4 h, mean |  | 0.5 h
O=C(CCC(=O)c1cc(C(F)(F)F)cc(C(F)(F)F)c1)ON1C(=O)CCC1=O | HPLC-MS | BBS buffer | pH 10.2 |  | < 0.0167 h

SMILES | assay | system | conditions | scale | half-life
COc1ccc([C@@H](O)c2cc(-c3ncnc4cc(N5CCOCC5)ccc34)c(F)cc2Cl)nn1 | geometric mean | healthy volunteers, plasma | oral, 100 mg, high-fat fed tablet |  | 3.34 h
C=CC[C@@H]1/C=C(\C)C[C@H](C)C[C@H](OC)[C@H]2O[C@@](O)(C(=O)C(=O)N3CCCC[C@H]3C(=O)O[C@H](/C(C)=C/[C@@H]3CC[C@@H](O)[C@H](OC)C3)[C@H](C)[C@@H](O)CC1=O)[C@H](C)C[C@@H]2OC |  | pooled human liver microsomes | pH 7.4 |  | 0.0423 h
N[C@@H](CC(=O)N1CCc2c(nc(C(F)(F)F)nc2C(F)(F)F)C1)CN1CC(F)(F)CCC1=O |  | healthy Korean adults, fasted, plasma | oral, 50 mg single dose, separate tablets, added: enavogliflozin 0.3 mg |  | 18 ± 1.75 h
NC1CCc2nc(-c3ccncc3)nc(Nc3cccc(F)c3)c2C1 (stereo not shown) |  | mouse liver microsomes | 4.6 µM, pH 7.4 |  | > 1 h
O=C(Oc1coc(CSc2ncccn2)cc1=O)c1ccc([N+](=O)[O-])cc1 |  | mouse plasma | 4 °C |  | 1.28 h
C[C@H](NC(=O)/C(C#N)=C/c1cccc(Br)n1)c1ccccc1 | LC-MS/MS | patients, plasma | oral, 2 mg/kg, cycle 1 day 1 |  | 2.8 h
CCCCCCCCCCCCCCCC(=O)N[C@@H](CCC(=O)NCCCC[C@@H]1NC(=O)[C@H]([C@@H](C)CC)NC(=O)[C@@H](NC(=O)[C@@H]2CCCN2C(=O)[C@H](Cc2ccccc2)NC(=O)[C@H](Cc2c[nH]cn2)NC(=O)[C@@H](NC(=O)[C@H](CC(=O)O)NC(=O)CC(C)C)[C@@H](C)O)CSSC[C@@H](C(=O)N[C@@H](CCCCN)C(N)=O)NC(=O)CNC(=O)[C@H](CCCCN)NC(=O)[C@H](CO)NC(=O)[C@H](CCCNC(=N)N)NC(=O)[C@@H]2CCCN2C(=O)[C@H](CCC(=O)O)NC(=O)[C@H](Cc2ccccc2)NC1=O)C(=O)O |  | healthy volunteers, plasma | subcutaneous, 20 mg single, lyophilised formulation |  | 28.6 ± 11.3 h
CC(C)C[C@H](NC(=O)[C@@H](N)[C@@H](C)O)C(=O)N[C@@H](CCC(N)=O)C(=O)N1CCC[C@H]1C(=O)N1CCC[C@H]1C(=O)N[C@@H](C)C(=O)N[C@@H](CO)C(=O)N[C@@H](CO)C(=O)N[C@@H](CCCNC(=N)N)C(=O)N[C@H](CCCNC(=N)N)C(=O)N[C@@H](CCCNC(=N)N)C(=O)N[C@@H](Cc1c[nH]cn1)C(=O)N[C@@H](Cc1ccccc1)C(=O)N[C@@H](Cc1c[nH]cn1)C(=O)N[C@@H](Cc1c[nH]cn1)C(=O)N[C@@H](C)C(=O)N[C@@H](CC(C)C)C(=O)N1CCC[C@H]1C(=O)N1CCC[C@H]1C(=O)N[C@H](C)C(=O)N[C@@H](CCCNC(=N)N)C(=O)O | LC-MS | mouse plasma 100% | 37 °C |  | > 2 h
CCN(CC)CCCC(C)Nc1cnc(C(=O)Nc2ccc(Cl)c3cccnc23)cn1 (stereo not shown) | metabolic stability | liver microsomes | 1 µM |  | > 0.5 h
N#Cc1cccc(-c2ccc3ncc(-c4cc(F)cc(F)c4)c(N4CCC(N)CC4)c3c2)c1O |  | healthy male, whole blood total radioactivity | oral, 20 mg, geometric mean |  | 21 h
C=CC(=O)NC1CCN(c2ncc3ncnc(Nc4ccc(Oc5ccc6c(c5)ncn6C)c(C)c4)c3n2)CC1 |  | healthy men | oral, 60 mg single dose, added: carbamazepine |  | 23.9 h
Cc1c(C(=O)O)ccc2c3n(nc12)[C@@H]1[C@H](C3)N(CC2CC2)[C@@]2(C(=O)Nc3cc(Cl)ccc32)[C@H]1c1cccc(Cl)c1F |  | cancer patients, plasma | oral, 45 mg day 1 every 3 weeks, geometric mean, cycle 1 |  | 42 h
CC(C)(C)c1nc(-c2cccc(N(Cc3cc(C(=O)[O-])ccc3OP(=O)([O-])[O-])S(=O)(=O)c3c(F)cccc3F)c2F)c(-c2ccnc(N)n2)s1.[Na+].[Na+].[Na+] |  | simulated gastric fluid | 10 µM, 2 h incubation, pH 1.2 |  | > 2 h
COC(=O)[C@H](N)CSSC[C@@H](N)C(=O)OC |  | human plasma | 100 µM, 37 °C |  | 0.473 h
Cc1c(C)n(Cc2cccc(OC(C)(C)C(=O)O)c2)c2ccc(C(=O)N[C@@H](C)c3ccc(C(C)(C)C)cc3)cc12 |  | mouse liver microsomes | 1 µM, added: microsomes 1 mg/mL |  | > 1 h
Nc1nnc(-c2ccccc2O)cc1N1CCN(Cc2ccc(OCCOCCNc3cccc4c3C(=O)N(C3CCC(=O)NC3=O)C4=O)c(F)c2)CC1 (stereo not shown) |  | mouse liver microsomes | added: ritonavir 10 µM | relative to: compound alone | increased
Cn1c(=O)n(C2CCC(=O)NC2=O)c2cccc(C#CCOC3CCN(C[C@H]4CC[C@H](n5cc(NC(=O)c6cnn7ccc(N8C[C@H]9C[C@@H]8CO9)nc67)c(C(F)F)n5)CC4)CC3)c21 (stereo partly shown) | H/D exchange |  | 0.5 µM, pH 7.8 |  | 2.4 h

A few entries again:
SMILES | assay | system | conditions | scale | half-life
N#C/C(=C\c1ccccc1)c1cnccn1 |  |  | pH 7.4 |  | 0.12 h
C=CC[C@@H]1/C=C(\C)C[C@H](C)C[C@H](OC)[C@H]2O[C@@](O)(C(=O)C(=O)N3CCCC[C@H]3C(=O)O[C@H](/C(C)=C/[C@@H]3CC[C@@H](O)[C@H](OC)C3)[C@H](C)[C@@H](O)CC1=O)[C@H](C)C[C@@H]2OC |  | pooled human liver microsomes | pH 7.4 |  | 0.0423 h
